Results pooled from the literature.
Every numbered part comes from another study and shows a few of its results, in no order. pIC50: −log10 of the molar value.
Chain of UniProt P17948 (whole entry, looked up): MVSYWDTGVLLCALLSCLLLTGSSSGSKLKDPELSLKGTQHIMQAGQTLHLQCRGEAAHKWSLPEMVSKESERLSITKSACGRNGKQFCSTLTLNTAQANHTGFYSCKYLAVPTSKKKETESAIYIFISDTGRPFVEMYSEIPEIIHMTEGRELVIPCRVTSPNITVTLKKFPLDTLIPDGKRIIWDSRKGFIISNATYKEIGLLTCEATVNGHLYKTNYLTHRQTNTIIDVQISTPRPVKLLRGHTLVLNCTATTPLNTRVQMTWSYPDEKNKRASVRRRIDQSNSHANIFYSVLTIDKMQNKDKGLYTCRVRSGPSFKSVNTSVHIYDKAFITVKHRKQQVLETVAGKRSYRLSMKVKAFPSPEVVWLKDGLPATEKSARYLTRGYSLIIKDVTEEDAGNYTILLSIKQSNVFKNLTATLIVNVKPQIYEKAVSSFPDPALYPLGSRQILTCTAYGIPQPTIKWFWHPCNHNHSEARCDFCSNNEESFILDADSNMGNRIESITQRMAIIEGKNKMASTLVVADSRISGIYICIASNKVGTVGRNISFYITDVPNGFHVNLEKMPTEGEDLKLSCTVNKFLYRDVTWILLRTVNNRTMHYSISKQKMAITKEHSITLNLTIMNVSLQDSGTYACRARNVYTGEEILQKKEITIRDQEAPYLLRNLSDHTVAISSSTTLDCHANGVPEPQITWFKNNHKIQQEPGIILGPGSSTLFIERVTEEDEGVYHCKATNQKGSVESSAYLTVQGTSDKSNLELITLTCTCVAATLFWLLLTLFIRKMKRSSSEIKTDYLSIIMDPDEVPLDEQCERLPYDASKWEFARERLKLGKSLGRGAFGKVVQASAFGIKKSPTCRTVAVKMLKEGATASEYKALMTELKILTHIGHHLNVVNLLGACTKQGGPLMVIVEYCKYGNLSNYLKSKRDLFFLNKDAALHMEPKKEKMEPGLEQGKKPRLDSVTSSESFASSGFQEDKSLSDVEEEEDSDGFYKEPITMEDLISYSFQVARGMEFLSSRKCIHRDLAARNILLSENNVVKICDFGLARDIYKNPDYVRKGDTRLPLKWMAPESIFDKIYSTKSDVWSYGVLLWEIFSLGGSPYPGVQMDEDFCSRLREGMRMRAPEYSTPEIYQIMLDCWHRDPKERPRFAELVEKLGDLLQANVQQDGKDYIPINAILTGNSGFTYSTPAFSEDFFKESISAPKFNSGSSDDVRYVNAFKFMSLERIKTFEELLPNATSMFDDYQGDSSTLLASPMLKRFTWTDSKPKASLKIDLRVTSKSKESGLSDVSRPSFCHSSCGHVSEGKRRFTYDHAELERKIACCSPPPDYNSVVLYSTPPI
Chain of UniProt P49760 (whole entry, looked up): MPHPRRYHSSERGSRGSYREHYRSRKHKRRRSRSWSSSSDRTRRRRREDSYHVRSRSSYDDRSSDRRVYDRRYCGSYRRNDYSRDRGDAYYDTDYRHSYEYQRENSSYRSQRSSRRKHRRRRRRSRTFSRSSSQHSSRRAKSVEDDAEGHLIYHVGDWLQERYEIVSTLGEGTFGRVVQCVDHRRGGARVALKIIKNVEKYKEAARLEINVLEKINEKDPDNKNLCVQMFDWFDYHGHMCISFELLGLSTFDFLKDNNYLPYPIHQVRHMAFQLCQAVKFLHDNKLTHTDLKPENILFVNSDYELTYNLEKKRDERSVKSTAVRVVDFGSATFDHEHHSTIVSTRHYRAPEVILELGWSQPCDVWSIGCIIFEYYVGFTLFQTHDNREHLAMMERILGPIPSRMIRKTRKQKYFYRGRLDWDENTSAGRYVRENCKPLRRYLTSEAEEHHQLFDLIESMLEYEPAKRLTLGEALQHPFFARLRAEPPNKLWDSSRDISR

Block 1
Compound: O=C(Nc1cnc(Oc2ccc(F)cc2)nc1)N1CCc2ncccc2[C@@H]1c1ccc(F)cc1
Method: competition with immobilised ligand
Tested at: 1 µM
Measurement: remaining binding
CLK2 (Homo sapiens, UniProt P49760); cell-free assay: 100%
ABL2 (Homo sapiens, UniProt P42684); cell-free assay: 78%
Myosin-IIIb (MYO3B, Homo sapiens, UniProt Q8WXR4); binding: 100%
Cyclin-dependent kinase 4, with cyclin D3 (CDK4, Homo sapiens, UniProt P11802); cell-free assay: 100%
NEK6 (Homo sapiens, UniProt Q9HC98); cell-free assay: 100%
FLT3 (Homo sapiens, UniProt P36888, D835V); cell-free assay: 100%
FLT1 (Homo sapiens, UniProt P17948); cell-free assay: 88%
IKBKE (Homo sapiens, UniProt Q14164); cell-free assay: 98%

Block 2
SMILES: COc1cc2nccc(Oc3ccc(NC(=S)NC(=O)c4ccccc4C)cc3)c2cc1OC
Effect on: enzyme activity
Action: inhibitor
Tested at: 0.5 µM
Reference: control
Measurement: remaining activity
TEC (Homo sapiens, UniProt P42680): 90.8%
FLT1 (Homo sapiens, UniProt P17948): 89.8%
CLK1 (Homo sapiens, UniProt P49759): 89.9%
CLK2 (Homo sapiens, UniProt P49760): 107%
SGK2 (Homo sapiens, UniProt Q9HBY8): 97.3%
PAK1 (Homo sapiens, UniProt Q13153): 101%
SIK2 (Homo sapiens, UniProt Q9H0K1): 97.8%
CSNK1E (Homo sapiens, UniProt P49674): 95.1%
Cyclin-dependent kinase 2, with cyclin E (CDK2, Homo sapiens, UniProt P24941): 96.7%
PRKCZ (Homo sapiens, UniProt Q05513): 96.9%
JAK1 (Homo sapiens, UniProt P23458): 96.7%
EPHA6 (Homo sapiens, UniProt Q9UF33): 33%

Block 3
Target: DNA polymerase theta, ATPase domain (POLQ, Homo sapiens, UniProt O75417)
Chain of UniProt O75417 (whole entry, unmodified, looked up): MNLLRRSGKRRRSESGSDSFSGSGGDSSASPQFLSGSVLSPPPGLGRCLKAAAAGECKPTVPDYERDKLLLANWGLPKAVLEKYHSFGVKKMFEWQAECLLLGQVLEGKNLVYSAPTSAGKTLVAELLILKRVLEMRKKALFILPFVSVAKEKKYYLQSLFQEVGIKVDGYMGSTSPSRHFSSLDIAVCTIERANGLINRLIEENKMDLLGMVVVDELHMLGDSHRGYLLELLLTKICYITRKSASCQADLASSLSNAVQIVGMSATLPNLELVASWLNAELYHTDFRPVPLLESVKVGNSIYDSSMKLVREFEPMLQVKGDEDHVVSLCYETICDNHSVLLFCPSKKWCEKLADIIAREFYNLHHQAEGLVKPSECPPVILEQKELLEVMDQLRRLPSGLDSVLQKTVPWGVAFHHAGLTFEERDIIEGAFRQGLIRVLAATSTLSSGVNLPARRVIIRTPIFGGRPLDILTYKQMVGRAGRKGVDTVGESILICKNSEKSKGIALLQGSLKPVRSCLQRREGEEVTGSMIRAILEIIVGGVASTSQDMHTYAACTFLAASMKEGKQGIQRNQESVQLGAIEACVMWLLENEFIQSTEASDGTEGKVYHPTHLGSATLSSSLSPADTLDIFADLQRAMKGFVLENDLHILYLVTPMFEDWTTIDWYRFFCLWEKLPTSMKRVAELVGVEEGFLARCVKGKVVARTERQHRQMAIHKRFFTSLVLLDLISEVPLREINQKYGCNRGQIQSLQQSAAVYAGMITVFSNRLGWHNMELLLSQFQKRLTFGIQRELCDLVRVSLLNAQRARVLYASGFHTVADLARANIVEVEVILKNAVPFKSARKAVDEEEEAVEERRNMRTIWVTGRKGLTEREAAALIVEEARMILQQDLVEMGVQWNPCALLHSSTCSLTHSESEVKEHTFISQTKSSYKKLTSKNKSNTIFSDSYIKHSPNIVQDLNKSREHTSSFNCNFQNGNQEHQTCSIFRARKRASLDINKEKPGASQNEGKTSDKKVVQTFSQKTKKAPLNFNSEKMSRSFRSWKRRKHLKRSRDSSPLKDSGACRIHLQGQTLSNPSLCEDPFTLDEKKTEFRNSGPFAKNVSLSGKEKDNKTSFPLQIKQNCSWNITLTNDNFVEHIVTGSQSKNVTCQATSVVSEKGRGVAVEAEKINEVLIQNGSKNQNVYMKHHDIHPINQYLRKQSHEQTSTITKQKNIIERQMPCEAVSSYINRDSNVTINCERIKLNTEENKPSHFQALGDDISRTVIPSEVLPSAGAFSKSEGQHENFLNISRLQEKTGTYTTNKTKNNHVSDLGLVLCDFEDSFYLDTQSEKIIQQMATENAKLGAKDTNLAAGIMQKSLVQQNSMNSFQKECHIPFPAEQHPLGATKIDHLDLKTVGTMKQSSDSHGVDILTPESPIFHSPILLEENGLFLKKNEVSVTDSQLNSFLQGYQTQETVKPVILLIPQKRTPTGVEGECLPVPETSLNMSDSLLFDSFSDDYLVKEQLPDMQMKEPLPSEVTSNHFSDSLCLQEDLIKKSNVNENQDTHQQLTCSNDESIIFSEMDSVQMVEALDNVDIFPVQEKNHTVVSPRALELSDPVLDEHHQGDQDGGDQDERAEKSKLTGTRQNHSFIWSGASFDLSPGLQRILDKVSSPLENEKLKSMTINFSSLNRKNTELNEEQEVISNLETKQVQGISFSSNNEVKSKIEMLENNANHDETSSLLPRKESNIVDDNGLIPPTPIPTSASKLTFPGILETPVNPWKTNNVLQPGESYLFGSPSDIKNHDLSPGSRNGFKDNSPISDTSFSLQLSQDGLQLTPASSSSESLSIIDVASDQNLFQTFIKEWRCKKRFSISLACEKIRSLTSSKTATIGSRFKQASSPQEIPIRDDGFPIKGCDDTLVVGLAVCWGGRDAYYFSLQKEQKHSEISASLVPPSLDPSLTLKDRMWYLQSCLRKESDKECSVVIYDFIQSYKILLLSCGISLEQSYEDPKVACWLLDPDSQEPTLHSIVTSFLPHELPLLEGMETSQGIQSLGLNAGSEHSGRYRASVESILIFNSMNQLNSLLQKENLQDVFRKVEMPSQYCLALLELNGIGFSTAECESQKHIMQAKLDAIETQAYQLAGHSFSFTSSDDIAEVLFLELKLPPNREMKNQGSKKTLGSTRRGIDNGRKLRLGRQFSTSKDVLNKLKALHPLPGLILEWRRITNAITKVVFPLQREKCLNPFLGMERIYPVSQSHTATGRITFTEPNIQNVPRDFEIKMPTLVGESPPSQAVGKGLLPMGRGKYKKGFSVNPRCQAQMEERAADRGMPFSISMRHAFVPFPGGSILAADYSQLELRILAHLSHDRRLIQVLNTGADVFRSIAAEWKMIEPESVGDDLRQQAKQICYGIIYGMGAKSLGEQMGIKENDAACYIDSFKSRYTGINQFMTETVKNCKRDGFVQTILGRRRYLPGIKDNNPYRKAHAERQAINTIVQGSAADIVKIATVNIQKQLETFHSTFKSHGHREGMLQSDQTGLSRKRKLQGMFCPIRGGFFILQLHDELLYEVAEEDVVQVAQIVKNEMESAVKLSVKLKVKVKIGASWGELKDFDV
Effect on: enzyme activity
Action: inhibitor
Tested at: 77 µM
Reference: untreated
Measurement: remaining activity
COc1ccc2cc(-c3nc(-c4ccc([S+](C)[O-])cc4)[nH]c3-c3ccncc3)ccc2c1 (stereo not shown): 95.4%
COc1cc2nc(N3CCN(C(=O)c4ccco4)CC3)nc(N)c2cc1OC: 102%
O=Nc1c(-c2c(O)[nH]c3cc(Br)ccc23)[nH]c2ccccc12: 102%
CCCCN(CCCC)CC(O)c1cc(Cl)cc2c1-c1ccc(Cl)cc1/C2=C/c1ccc(Cl)cc1 (stereo not shown): 99.1%
CCCn1cnc2c1c(=O)n(CCCCC(C)=O)c(=O)n2C: 102%

Block 4
Target: Beta-1 adrenergic receptor (ADRB1, Homo sapiens, UniProt P08588)
Chain of UniProt P08588 (whole entry, looked up): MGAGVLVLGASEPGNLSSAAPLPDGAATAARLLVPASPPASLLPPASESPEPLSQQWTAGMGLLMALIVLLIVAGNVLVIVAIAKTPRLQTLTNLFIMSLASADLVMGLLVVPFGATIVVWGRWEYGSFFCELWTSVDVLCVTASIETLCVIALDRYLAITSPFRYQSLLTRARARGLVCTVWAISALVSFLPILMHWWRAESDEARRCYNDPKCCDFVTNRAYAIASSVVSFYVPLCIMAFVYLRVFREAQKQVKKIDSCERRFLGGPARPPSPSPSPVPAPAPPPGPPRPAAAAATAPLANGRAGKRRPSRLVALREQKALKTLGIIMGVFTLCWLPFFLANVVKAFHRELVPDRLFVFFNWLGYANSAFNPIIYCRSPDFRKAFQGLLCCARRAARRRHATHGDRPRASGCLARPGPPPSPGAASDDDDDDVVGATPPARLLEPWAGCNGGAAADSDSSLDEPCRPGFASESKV
Action: antagonist
Measurement: pIC50
Nc1nc(CC(=O)Nc2ccc(CCNC[C@H](O)c3ccccc3)cc2)cs1: ≤ 4.00
O=c1cc(N2CCNCC2)nc2sc(C(F)(F)F)nn12: ≤ 4.00
COc1ccccc1N1CCN(CC[C@@H]2CC[C@H](O)[C@@H](C(=O)NC(C)C)O2)CC1: ≤ 4.00
c1ccc2c(Oc3nc(Nc4ccc(N5CCOCC5)cc4)c4ncn(C5CCCCC5)c4n3)cccc2c1: ≤ 4.00
Cc1cc(I)ccc1Nc1nc(NCCN2CCOCC2)nc(N2CCOCC2)n1: ≤ 4.00
OC(CNc1nccc(-c2cccnc2)n1)COc1ccc(Cl)cc1 (stereo not shown): ≤ 4.00

Some of these lines once more (block 2):
PRKCZ (Homo sapiens, UniProt Q05513): 96.9%
JAK1 (Homo sapiens, UniProt P23458): 96.7%
